Experimental data collected from several papers.
Each numbered part is a random draw from the data of one study; scales do not carry over between parts. Positions count from the first letter of the parent shown.

Series 1
Target: Interferon regulatory factor 3, full length, phosphomimetic (IRF3, Homo sapiens, UniProt Q14653, residues 1-427, S386D/S396D/S398D/S402D/T404D/S405D)
UniProt Q14653, sequence (whole entry, unmodified, looked up): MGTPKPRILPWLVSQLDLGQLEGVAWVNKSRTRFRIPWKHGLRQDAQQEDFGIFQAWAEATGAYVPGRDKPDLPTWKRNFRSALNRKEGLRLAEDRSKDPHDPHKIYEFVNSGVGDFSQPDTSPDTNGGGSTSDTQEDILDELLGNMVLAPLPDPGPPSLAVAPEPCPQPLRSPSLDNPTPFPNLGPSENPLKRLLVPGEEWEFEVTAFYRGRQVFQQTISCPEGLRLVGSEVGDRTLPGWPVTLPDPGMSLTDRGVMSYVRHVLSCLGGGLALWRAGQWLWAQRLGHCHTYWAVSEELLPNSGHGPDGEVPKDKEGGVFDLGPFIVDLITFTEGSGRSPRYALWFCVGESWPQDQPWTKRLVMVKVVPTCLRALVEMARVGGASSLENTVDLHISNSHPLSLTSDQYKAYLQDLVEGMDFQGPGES
Technique: protein-binding microarray
Form: double-stranded DNA, one strand shown
Matrix: in vitro
Concentration: 2540 nM top
Setting: 60-bp whole probe
Added: salmon DNA 0.4 mg/ml
Relative to: random background probes
Reading: higher = stronger binding
Constant ends, left off below: GCCTAGCAC … GTCTTGATTCGCTTGACGCTGCTG
Strand | fitted relative affinity [z-score]
GACGGTTTCGGGTTCGGGACGTGCTAG | 5.42
TTAGATCTGAGACTGGATTAGTGCTAG | -0.415
GACGGTATCGACACTGAGGACGTGCTA | 0.736
TTAGATATCGCGTATCGATTAGTGCTA | 0.145
GACGGAATGGGTCTCGGGACGTGCTAG | -0.447
GACGGTTCAGGTTTCGGGACGTGCTAG | 2.65
TTACGACTGGGTCTCGGTTAGTGCTAG | -0.44
TTAGATCTCAGTTTCGATCAGTGCTAG | 2.72
TTTTTTTTCTGATCCATTTTGTGCTAG | 3.01
TTAGGACTGGGGTTTCGGTTGGTGCTA | 1.48
TTAGATATCAGTTTCAATTAGTGCTAG | 2.74
TTAGGTTTCCGTATCGGTTAGTGCTAG | 6.99
GACGGTTTCCTTTTACTGACGTGCTAG | 10.4
TTAGATTTGAGTTCCGATTAGTGCTAG | 1.3
GACGGTTTCGGACTGGGGAAGTGCTAG | 4.76
TCAGATGTGTATATGACACTGTGCTAG | -0.19
TACGATTTCAGTCTCGAGACGTGCTAG | 2.09

Series 2
Target: CCNA2, cyclin fold, Cln2 fusion (human)
Technique: yeast growth competition, sequencing
Matrix: yeast
Setting: strong parent motif
Relative to: not given
Reading: higher = stronger binding
Starting sequence: HASPIN docking peptide (human); ASLRSVLFGLMNS
Substitution | normalised enrichment score
N12A | 1.9
S5A | 1.43
L7A | 0.649
V6A | 1.18
L3A | 0.891
F8A | 1.05

Series 3
Target: Sal-like protein 4, full length isoform B (SALL4, Homo sapiens, UniProt Q9UJQ4-2, residues 1-616)
Technique: universal PBM
Form: double-stranded DNA, one strand shown
Matrix: in vitro
Concentration: not given
Setting: 8-mer, flanks averaged, mean of replicates
Reading: higher = stronger binding
Residues (chain): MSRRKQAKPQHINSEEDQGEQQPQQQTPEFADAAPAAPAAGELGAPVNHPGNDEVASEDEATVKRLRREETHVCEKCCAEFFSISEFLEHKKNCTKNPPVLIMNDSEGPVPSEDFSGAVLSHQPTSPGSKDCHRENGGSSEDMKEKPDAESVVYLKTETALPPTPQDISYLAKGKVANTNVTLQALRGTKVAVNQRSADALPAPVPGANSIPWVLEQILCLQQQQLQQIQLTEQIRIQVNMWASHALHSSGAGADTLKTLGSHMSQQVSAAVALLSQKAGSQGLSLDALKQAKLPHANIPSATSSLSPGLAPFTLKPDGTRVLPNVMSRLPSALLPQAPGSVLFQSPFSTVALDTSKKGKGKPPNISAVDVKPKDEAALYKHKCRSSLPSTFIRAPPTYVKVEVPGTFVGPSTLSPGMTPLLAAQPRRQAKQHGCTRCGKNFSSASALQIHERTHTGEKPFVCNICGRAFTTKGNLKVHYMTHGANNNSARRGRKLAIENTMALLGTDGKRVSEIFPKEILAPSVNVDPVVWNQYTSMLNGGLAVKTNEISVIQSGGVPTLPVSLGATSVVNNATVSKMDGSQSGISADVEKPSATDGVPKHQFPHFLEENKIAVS
Strand | E-score
CCAGTGAG | -0.293
AAGCGGAC | -0.238
CTGGGCAA | -0.092
TAACGAGA | 0.143
CTGTCCCC | -0.36
CGAAACAC | 0.00076
GAGTACGA | 0.0269
ATCTCCGG | -0.0312
CCGCTCGA | -0.3
AGCCTCAC | -0.21
GCAACTGC | -0.0741
GGTCAGTA | -0.0367
CCTCCGCC | -0.273
CGCCCAGA | -0.266
ACGGTAGT | -0.066
CGGAACAA | 0.0311
CACCTCCG | -0.181
CAAAGAGG | -0.198
AGTCATGC | -0.188
GTGCCGGA | -0.227
GGATCGCA | -0.119
GCAGAAGC | -0.0806
GACTACGC | -0.129
AGCACGCG | -0.115
ATGCCCGC | -0.194

Series 4
Target: Histone acetyltransferase KAT6A, both winged helices, GST fusion (KAT6A, Homo sapiens, UniProt Q92794, residues 1-181)
Technique: protein binding microarray
Form: double-stranded DNA, one strand shown
Matrix: in vitro
Concentration: not given
Setting: 8-mer, flanks averaged, mean of 2 arrays, mostly near background
Relative to: not given
Reading: higher = stronger binding
Construct (chain): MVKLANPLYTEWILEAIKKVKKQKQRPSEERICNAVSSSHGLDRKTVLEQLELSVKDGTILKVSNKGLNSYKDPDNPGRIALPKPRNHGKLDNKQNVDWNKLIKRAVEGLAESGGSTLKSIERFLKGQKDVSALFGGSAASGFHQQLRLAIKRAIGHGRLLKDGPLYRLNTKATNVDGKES
Strand | E-score
ACCAATTC | -0.162
CTTTACCC | -0.0152
GAGTGACC | -0.109
AGTCGCTC | -0.0667
TAGGGTCA | -0.146
CTCGCATC | 0.0568
AACAGAGC | -0.0425
ACGTAAGG | -0.144
ACTCGCAC | 0.12
AGACTTTC | -0.152
GATTAGGC | -0.112
ATCTTCTA | -0.0149
GATTACAC | -0.0149
ACTAGGAA | -0.173
AGCTACGA | -0.0813
AATCCTGA | -0.177

Single results of other studies
Molecule | target | test | test system | setting | scale | quantity | result
PhoQ, residues 284 288 289 292 302 303 NLALSC | PhoP, residues 12 14 15 18 19 AGCRL (Escherichia coli, UniProt P23836) | Sort-seq, measured: YFP reporter | E. coli | PhoQ-PhoP variant library, added: 10 µM Mg2+ | relative to: high Mg2+ state, higher = stronger signaling | fold induction | 2.14

For quick reference, copied from above (series 3):
Strand | E-score
ATCTCCGG | -0.0312
CAAAGAGG | -0.198
AGCACGCG | -0.115
ATGCCCGC | -0.194
